Measured values collected from several papers.
Parts stem from different laboratories: compare values within a part only.

Block 1
Target: Histone acetyltransferase KAT6A, winged helix 2, GST fusion (KAT6A, Homo sapiens, UniProt Q92794, residues 85-181)
Method: protein binding microarray
Form: double-stranded DNA, one strand shown
Matrix: in vitro
Tested at: not given
Setting: 8-mer, flanks averaged, mean of 2 arrays, mostly near background
Relative to: not given
Reading: higher = stronger binding
Construct (chain): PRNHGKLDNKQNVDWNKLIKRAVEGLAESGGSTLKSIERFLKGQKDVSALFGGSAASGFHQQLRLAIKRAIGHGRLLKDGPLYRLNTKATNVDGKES
| Sequence | E-score |
| --- | --- |
| ACCCCAGC | 0.0225 |
| ATCCATGG | -0.153 |
| CTAGGGAA | -0.0287 |
| AATGTGGG | -0.152 |
| CAACGTGC | -0.17 |
| CTTTGCGA | 0.123 |
| AAACCCAA | 0.14 |
| GCCCTAGC | -0.067 |

Block 2
Cell line: HEK-293T/ACE2
Tested at: 10 µM
Time: 16 h
Relative to: vehicle
| SMILES | viability [%] |
| --- | --- |
| Cc1cccc(C)c1NC(=O)C1CCCCN1C (centres unmarked) | 100 |
| C[C@]12CCC(=O)C=C1[C@@H]1C[C@@H]1[C@H]1[C@@H]3[C@@H]4C[C@@H]4[C@@]4(CCC(=O)O4)[C@@]3(C)CC[C@@H]12 | 97.8 |
| CCN(CCO)CCCC(C)Nc1ccnc2cc(Cl)ccc12 (centres unmarked) | 104 |
| NCC1(CC(=O)O)CCCCC1 | 100 |

Block 3
Target: Replicase polyprotein 1ab, main protease (rep, Severe acute respiratory syndrome coronavirus 2, UniProt P0DTD1)
Observed: enzyme activity
Action: inhibitor
Tested at: 20 µM
Setting: primary screen
| SMILES | inhibition |
| --- | --- |
| COc1ccc([N+](=O)[O-])c(S(=O)(=O)c2ccc(Cl)cc2)n1 | 58.4% |
| Sc1nnnn1-c1ccccc1 | 97.8% |
| CO/N=C(\C(=O)N[C@@H]1C(=O)N2C(C(=O)O)=C(CSC(=O)c3ccco3)CS[C@H]12)c1csc(N)n1 | 83.8% |

Block 4
Target: Replicase polyprotein 1ab, nsp13 helicase (rep, Severe acute respiratory syndrome coronavirus 2, UniProt P0DTD1)
Action: inhibitor
Tested at: 20 µM
| SMILES | inhibition [%] |
| --- | --- |
| CCNC1(C(N)=O)CCN(c2ncnc3c2nc(-c2ccccc2Cl)n3-c2ccc(Cl)cc2)CC1 | 2.68 |
| C/C=C1/[C@H](O[C@@H]2O[C@H](CO)[C@@H](O)[C@H](O)[C@H]2O)OC=C(C(=O)OC)[C@H]1CC(=O)OCCc1ccc(O)c(O)c1 | 5.64 |
| CC1=C[C@H](O)CC(C)(C)[C@H]1/C=C/C(C)=C/C=C/C(C)=C/C=C/C=C(C)/C=C/C=C(C)/C=C/C1=C(C)C[C@@H](O)CC1(C)C | 6.06 |
| CNCc1ccc(C)c(NC(=O)c2ccc(Nc3nc(-c4ccccc4)c4ccccc4n3)cc2)c1 | 12.1 |
| N[C@@H](C(=O)O)c1ccc(O)c(C(=O)O)c1 | 5.4 |
| O=C(O)CC1CC(c2ccccc2)=NO1 (centres unmarked) | 8.09 |
| Cn1cc(C(=O)OCC2CCN(CCNS(C)(=O)=O)CC2)c2ccccc21 | 4.57 |
| C=C1CC[C@@]2(O)[C@H]3Cc4ccc(O)c5c4[C@@]2(CCN3CC2CC2)[C@H]1O5 | -0.03 |
| CCCCCCNC(=O)Nc1ccc(S(=O)(=O)Nc2ccc(CCNC[C@H](O)COc3ccc(O)cc3)cc2)cc1 | 17.5 |
| CC(C)(C)c1nc(-c2cccc(NS(=O)(=O)c3c(F)cccc3F)c2F)c(-c2ccnc(N)n2)s1 | 2.92 |
| CNNCc1ccc(C(=O)NC(C)C)cc1 | 5.21 |
| CC(C)c1ccccc1Cc1cc(C(=O)Nc2ccc(S(=O)(=O)c3ccccc3C(C)(C)C)cc2)c(O)c(O)c1O | 3.76 |
| Cc1ccc2[nH]c(=O)c(C3=NN(C(=O)CCC(=O)O)C(c4ccc(Br)cc4)C3)c(-c3ccccc3)c2c1 (centres unmarked) | 3.07 |
| CCCC(C(=O)OCCN(CC)CC)(c1ccccc1)c1ccccc1 | -3.68 |
| CN[C@@H](C)C(=O)N[C@H](C(=O)N1CCC[C@H]1C(=O)Nc1sc(-c2ncco2)nc1-c1ccccc1)C1CCCCC1 | 10.5 |
| C[C@@]12CC[C@@H]3[C@@](CC[C@H]4[C@@]3(C)CCC[C@@]4(C)C(=O)O)(CC1=O)C2 | 0.15 |
| CCC[C@H](N[C@@H](C)C(=O)N1[C@H](C(=O)O)C[C@@H]2CCCC[C@@H]21)C(=O)OCC | 10.8 |
| COC(=O)C1=C(C)NC(C)=C(C(=O)OCCN(C)Cc2ccccc2)C1c1cccc([N+](=O)[O-])c1 (centres unmarked) | 1.52 |

Block 5
Target: RNA binding protein fox-1 homolog 2, RRM domain, GST-SBP tag (RBFOX2, Homo sapiens, UniProt O43251-10, residues 100-194)
Method: RNA Bind-n-Seq
Form: RNA
Matrix: in vitro
Tested at: 365 nM
Setting: natural RNA segment, single round, ends assumed
Relative to: no-protein control
Reading: higher = stronger binding
All sequences stand within: GGGAGUUCUACAGUCCGACGAUC … UGGAAUUCUCGGGUGCCAA
Construct (chain): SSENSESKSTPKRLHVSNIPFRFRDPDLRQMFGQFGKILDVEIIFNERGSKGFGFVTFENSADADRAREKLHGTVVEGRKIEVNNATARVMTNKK
| Sequence | RBNS enrichment (R) |
| --- | --- |
| AGUUGCUGUUUGUUUGACAAAGAAACCCAAGUGGGGGCAGAGGGCAGAGGCUGGAGGCAGGGCCUUGCCCAGAGAUGCCUCCACCGCUGCCUAAGUGGCUGCUGACUGAU | 0.284 |
| CCUGCGUCAAGCAGUGGGAGAGGGCAGUGCCCGGUGCCCUGGUGCUCCCAGCUGCCCUCCUGCUUCGGGCCUGGGCCGAGGGCCUUGUGUAGGCCAUGUUCCUCGGGCAG | 0.357 |
| GCUUUCCUGUGACUUGAUUGGGAUACAGGCAUUUAACUUUGGAAGGCUAGUUUGGUGCCUGCUCUGGGUCAUACACCUGAUCUGGAAGAACAAAGCUUAAGCUGCCUUUG | 0.375 |
| GCCUCUUCUCAGAGUUCAGGAAAAACAGUAGUGCCACUUGAGACCUCGUAGAGGAGGUAUACGUGGCUGCCUUAGUAUUCUGUUCCUCAUGAUUAUUUUAGAAACUGGAU | 0.427 |
| UCUCCUCCCUGGACAAGGCUCAGUGGACCAUCAGAUGGAGGAAGACUGGCCCCAUUGCUUGAGCCCCUGUGCGACCCUUGACCUCCAGCCUUAGUUCUCCUGGAAGCUGC | 0.441 |
| UACAUCAUCACAGUAGAAUUUAUUAUGAGAGCAUGUAGUAUGUAUCUGUAGCCCUAACACAUGGGAUGAACGUUUUACUGCUACACCCAGAUUUGUGUUGAACGAAAACA | 0.678 |
| UUUACUCUCUGCCGUGGGUCUGCAGUCGCUGCAACCUACCCUCUCUCUGCCUCAGCCUUACACCCAAGCAGUAGGUCUGUGCUCUCCCUGUCUCUAGGUCGCUGAGAGAG | 0.59 |
| GCAUUCAUUUUAUUUCCCUUAAGGUCUGGAUGAGACUUCUUUGGGGAGCCUCUAAAAAAAUUUUUCACUGGGGGCCACGUGGGUCAUUAGAAGCCAGAGCUCUCCUCCAG | 0.531 |

Excerpt of the above (block 4):
| SMILES | inhibition [%] |
| --- | --- |
| CC(C)(C)c1nc(-c2cccc(NS(=O)(=O)c3c(F)cccc3F)c2F)c(-c2ccnc(N)n2)s1 | 2.92 |
| CNNCc1ccc(C(=O)NC(C)C)cc1 | 5.21 |
| CC(C)c1ccccc1Cc1cc(C(=O)Nc2ccc(S(=O)(=O)c3ccccc3C(C)(C)C)cc2)c(O)c(O)c1O | 3.76 |
| Cc1ccc2[nH]c(=O)c(C3=NN(C(=O)CCC(=O)O)C(c4ccc(Br)cc4)C3)c(-c3ccccc3)c2c1 (centres unmarked) | 3.07 |
| CCCC(C(=O)OCCN(CC)CC)(c1ccccc1)c1ccccc1 | -3.68 |
| CN[C@@H](C)C(=O)N[C@H](C(=O)N1CCC[C@H]1C(=O)Nc1sc(-c2ncco2)nc1-c1ccccc1)C1CCCCC1 | 10.5 |
